Results of several laboratories.
Lines come from different studies, so protocols differ. Several values in a cell are separate wells, animals, samples, runs or records. Numbers after ± are the reported error. Non-standard residues stand in square brackets, D forms with d. Square brackets hold non-standard residues; d marks the D form. Ends that are not written are not given here. No end group written: not given here.
PIN1: PIN1 (Homo sapiens, UniProt Q13526)
B1: TIF4631 572-853 K590R (Saccharomyces cerevisiae, UniProt P39935); sequence looked up; chain LVPSANRWVPKFKSKKTERKLAPDGKTELLDKDEVERKMKSLLNKLTLEMFDAISSEILAIANISVWETNGETLKAVIEQIFLKACDEPHWSSMYAQLCGKVVKELNPDITDETNEGKTGPKLVLHYLVARCHAEFDKGWTDKLPTNEDGTPLEPEMMSEEYYAAASAKRRGLGLVRFIGFLYRLNLLTGKMMFECFRRLMKDLTDSPSEETLESVVELLNTVGEQFETDSFRTGQATLEGSQLLDSLFGILDNIIQTAKISSRIKFKLIDIKELRHDKNWN
B2: PPARG AF-1 1-136 (Homo sapiens, UniProt P37231-1); pS112, pT75; chain MGETLGDSPIDPESDSFTDTLSANISQEMTMVDTEMPFWPTNFGISSVDLSVMEDHSHSFDIKPFTTVDFSSISTPHYEDIPFTRTDPVVADYKYDLKLQEYQSAIKVEPASPPYYSEKTQLYNKPHEEPSNSLMA
B3: Cnpy2 (Mus musculus, UniProt Q9QXT0); sequence looked up; chain RRSQDLHCGACRALVDELEWEIARVDPKKTIQMGSFRINPDGSQSVVEVPYARSEAHLTELLEEVCDRMKEYGEQIDPSTHRKNYVRVVSRNGESSELDLQGIRIDSDISGTLKFACESIVEEYEDELIEFFSREADNVKDKLCSKRTDLCDHALHRSHDEL
B4: Thy1 (Mus musculus, UniProt P01831); sequence looked up; chain QKVTSLTACLVNQNLRLDCRHENNTKDNSIQHEFSLTREKRKHVLSGTLGIPEHTYRSRVTLSNQPYIKVLTLANFTTKDEGDYFCELQVSGANPMSSNKSISVYRDKLVKC
B5: CKS1 (Saccharomyces cerevisiae, UniProt P20486); sequence looked up; chain MYHHYHAFQGRKLTDQERARVLEFQDSIHYSPRYSDDNYEYRHVMLPKAMLKVIPSDYFNSEVGTLRILTEDEWRGLGITQSLGWEHYECHAPEPHILLFKRPLNYEAELRAATAAAQQQQQQQQQQQQQQQQHQTQSISNDMQVPPQIS
UniProt Q13586, sequence (whole entry, looked up): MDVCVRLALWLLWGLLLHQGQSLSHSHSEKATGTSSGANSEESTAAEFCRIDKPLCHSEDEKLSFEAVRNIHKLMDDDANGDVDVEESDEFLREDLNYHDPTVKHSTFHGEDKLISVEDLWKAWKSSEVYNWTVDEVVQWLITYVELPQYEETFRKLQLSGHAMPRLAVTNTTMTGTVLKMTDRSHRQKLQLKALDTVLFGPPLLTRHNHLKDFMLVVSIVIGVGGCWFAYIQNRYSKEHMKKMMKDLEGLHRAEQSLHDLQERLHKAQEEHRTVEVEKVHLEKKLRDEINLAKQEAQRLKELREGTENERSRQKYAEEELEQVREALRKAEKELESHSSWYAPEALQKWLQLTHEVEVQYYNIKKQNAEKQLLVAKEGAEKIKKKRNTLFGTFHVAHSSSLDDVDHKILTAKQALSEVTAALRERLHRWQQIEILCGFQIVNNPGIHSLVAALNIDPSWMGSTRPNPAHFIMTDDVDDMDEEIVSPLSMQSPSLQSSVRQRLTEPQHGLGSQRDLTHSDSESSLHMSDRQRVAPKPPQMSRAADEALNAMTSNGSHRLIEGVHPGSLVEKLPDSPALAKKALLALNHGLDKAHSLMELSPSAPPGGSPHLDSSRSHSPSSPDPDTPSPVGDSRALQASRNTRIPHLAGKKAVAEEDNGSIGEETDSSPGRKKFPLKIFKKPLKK
UniProt P06400, sequence (whole entry, unmodified, looked up): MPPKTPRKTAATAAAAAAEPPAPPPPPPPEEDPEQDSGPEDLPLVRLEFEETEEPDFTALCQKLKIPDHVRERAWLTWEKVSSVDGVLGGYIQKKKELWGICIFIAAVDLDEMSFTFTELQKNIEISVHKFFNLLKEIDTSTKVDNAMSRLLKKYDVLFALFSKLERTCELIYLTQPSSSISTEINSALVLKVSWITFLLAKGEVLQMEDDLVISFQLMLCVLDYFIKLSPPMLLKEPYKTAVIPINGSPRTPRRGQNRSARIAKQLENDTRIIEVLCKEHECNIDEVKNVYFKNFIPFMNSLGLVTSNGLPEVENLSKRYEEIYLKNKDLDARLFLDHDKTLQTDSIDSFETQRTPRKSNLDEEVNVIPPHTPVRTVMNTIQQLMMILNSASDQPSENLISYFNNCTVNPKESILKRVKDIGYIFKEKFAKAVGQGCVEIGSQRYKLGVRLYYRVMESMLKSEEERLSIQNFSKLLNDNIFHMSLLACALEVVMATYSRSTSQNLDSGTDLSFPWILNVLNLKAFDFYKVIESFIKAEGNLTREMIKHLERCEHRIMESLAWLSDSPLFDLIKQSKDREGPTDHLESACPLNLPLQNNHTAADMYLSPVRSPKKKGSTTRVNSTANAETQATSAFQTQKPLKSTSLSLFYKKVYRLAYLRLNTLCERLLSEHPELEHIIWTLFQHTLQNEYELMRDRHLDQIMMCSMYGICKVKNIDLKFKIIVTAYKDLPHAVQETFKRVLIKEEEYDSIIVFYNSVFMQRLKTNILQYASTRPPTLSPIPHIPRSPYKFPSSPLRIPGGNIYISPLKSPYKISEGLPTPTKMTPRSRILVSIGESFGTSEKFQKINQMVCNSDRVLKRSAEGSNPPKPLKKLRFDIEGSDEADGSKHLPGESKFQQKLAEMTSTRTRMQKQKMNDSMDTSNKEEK
UniProt P48061, sequence (whole entry, looked up): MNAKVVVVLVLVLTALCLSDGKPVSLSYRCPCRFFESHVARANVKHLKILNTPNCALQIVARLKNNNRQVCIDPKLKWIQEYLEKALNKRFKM
UniProt P29350, sequence (whole entry, unmodified, looked up): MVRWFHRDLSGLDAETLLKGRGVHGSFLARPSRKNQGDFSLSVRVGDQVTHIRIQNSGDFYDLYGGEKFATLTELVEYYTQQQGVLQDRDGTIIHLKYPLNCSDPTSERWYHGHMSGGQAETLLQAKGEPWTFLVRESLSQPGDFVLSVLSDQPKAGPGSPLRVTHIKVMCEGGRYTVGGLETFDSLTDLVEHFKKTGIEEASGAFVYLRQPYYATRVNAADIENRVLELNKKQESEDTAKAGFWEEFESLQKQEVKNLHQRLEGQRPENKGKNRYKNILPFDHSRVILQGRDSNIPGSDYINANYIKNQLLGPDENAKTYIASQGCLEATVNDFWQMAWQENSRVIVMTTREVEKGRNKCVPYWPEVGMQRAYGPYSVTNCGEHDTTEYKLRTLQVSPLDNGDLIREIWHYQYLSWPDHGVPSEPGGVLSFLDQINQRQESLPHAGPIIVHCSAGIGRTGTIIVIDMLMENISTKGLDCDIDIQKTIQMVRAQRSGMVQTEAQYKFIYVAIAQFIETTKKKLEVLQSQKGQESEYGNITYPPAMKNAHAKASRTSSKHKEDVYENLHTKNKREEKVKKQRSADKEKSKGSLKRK
UniProt P00388, sequence (whole entry, looked up): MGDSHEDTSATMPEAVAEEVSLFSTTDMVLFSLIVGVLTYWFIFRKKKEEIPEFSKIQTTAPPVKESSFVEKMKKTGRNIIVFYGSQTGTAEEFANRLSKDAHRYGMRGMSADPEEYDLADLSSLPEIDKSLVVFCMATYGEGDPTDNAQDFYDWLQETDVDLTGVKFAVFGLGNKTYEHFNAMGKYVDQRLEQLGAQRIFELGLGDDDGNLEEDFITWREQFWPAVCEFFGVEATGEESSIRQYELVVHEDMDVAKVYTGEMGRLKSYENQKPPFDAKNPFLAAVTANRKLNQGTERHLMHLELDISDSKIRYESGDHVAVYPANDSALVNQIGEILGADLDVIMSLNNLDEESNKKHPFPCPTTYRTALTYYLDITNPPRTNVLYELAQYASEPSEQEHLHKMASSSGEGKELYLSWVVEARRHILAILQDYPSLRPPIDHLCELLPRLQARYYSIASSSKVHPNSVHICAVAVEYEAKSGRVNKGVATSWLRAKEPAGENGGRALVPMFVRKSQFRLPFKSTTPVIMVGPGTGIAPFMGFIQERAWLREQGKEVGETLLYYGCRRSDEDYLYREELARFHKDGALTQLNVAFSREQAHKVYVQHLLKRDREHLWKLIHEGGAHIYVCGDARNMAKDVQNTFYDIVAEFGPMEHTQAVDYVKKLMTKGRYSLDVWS
UniProt P00178, sequence (whole entry, looked up): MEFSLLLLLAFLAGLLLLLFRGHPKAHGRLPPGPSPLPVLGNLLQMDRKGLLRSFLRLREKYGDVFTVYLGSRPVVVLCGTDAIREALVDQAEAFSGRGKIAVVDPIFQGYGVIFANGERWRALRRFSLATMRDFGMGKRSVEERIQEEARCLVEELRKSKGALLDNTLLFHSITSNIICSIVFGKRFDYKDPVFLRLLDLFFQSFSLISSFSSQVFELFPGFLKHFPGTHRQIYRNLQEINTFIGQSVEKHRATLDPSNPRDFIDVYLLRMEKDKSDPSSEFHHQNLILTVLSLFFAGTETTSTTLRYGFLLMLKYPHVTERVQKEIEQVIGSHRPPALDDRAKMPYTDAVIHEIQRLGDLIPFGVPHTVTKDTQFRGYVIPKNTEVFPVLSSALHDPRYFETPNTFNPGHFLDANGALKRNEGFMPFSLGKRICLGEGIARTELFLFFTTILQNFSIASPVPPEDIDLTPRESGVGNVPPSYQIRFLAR
UniProt P00738, sequence (whole entry, looked up): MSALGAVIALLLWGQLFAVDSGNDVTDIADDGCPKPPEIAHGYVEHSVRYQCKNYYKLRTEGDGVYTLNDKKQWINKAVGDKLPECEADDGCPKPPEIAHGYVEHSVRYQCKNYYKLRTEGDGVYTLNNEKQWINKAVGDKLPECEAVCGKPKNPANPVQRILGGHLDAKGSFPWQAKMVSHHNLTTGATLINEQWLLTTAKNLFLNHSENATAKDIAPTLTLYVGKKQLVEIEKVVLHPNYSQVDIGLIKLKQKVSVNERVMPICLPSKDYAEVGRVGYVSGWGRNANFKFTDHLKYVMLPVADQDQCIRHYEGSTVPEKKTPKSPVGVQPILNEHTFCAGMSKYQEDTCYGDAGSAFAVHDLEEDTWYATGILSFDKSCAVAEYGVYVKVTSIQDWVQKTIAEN
UniProt Q96D31, sequence (whole entry, looked up): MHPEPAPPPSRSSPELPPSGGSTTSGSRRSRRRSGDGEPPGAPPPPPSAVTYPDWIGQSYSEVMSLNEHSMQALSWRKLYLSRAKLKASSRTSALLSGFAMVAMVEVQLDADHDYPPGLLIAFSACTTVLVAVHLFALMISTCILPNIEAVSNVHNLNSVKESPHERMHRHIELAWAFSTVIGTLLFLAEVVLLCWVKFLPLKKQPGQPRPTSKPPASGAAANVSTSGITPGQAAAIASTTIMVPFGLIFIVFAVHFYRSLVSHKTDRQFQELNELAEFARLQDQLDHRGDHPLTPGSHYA
UniProt O60934, sequence (whole entry, looked up): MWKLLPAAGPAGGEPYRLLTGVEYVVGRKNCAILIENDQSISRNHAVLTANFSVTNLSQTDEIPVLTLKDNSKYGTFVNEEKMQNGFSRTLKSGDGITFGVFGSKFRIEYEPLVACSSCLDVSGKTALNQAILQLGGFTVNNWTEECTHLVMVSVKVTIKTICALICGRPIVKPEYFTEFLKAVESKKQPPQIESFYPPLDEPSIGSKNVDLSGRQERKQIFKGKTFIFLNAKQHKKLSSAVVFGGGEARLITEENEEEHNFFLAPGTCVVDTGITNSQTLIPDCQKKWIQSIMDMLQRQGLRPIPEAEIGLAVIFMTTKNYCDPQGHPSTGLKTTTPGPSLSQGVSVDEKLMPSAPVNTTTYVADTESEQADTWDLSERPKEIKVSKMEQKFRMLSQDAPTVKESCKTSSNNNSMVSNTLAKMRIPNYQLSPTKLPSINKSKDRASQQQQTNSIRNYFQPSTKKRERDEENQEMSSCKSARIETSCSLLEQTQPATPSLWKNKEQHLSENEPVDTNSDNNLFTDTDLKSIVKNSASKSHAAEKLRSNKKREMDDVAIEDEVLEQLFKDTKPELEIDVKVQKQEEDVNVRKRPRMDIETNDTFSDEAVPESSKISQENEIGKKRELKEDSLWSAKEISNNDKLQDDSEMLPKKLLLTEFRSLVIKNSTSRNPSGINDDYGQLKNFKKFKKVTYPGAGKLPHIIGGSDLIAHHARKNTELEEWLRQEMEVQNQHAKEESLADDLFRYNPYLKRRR

For `ETDKE[pY][pY]TVKD (JAK1 1029-1039; pY1034/pY1035; pY = N[C@@H](Cc1ccc(OP(=O)(O)O)cc1)C(=O)O)`, “molecule per partner” read 0.9 (PTPN6 243-530 Q252A/C453S (Homo sapiens, UniProt P29350); ITC; peptide; pH 8.0, 25 °C, NaCl 100 mM).
For `COL4A1 (Homo sapiens, UniProt P02462)`, the cell viability was 34% (Itga1/Itgb1 whole, on cells (Mus musculus); MTT; MLEC; 500 nM, 24 h; reference: untreated control, higher = more viable cells).
`IKBKB full length (Homo sapiens)` has a relative Vmax of 250 a.u. (NFKBIA 1-54 (Homo sapiens, UniProt P25963); steady-state kinetics; with: ATP; higher = faster phosphorylation).
`B1 (TIF4631 572-853 K590R)`: binding “binds” (TIF1 Q186C/G370C, Alexa488/Alexa546 labels (Saccharomyces cerevisiae, UniProt P10081); conformation of molecule, smFRET).
For `B2 (PPARG AF-1 1-136)`, the koff was 1430 s⁻¹ and 659 s⁻¹ (PIN1; NMR).
For `B3 (Cnpy2)`, the phosphorylation was 2 fold (Eif2ak3 (Mus musculus, UniProt Q9Z2B5); kinase activity, activator; reference: without CNPY2, higher = more phosphorylation).
`RPA1/RPA2/RPA3 heterotrimer, hyperphosphorylated RPA2`: “decrease of interaction” 67% (NBN (Homo sapiens, UniProt O60934); co-IP; reference: RPA, higher = weaker interaction).
For `ITGB1 whole (Gallus gallus, UniProt P07228)`, the attachment was 4% (laminin (Mus musculus, UniProt P19137); neuron attachment; E8 CG neurons; with: JG22 50 µg/mL; reference: poly-D-lysine, higher = more attachment).
Under “molecule per partner”, `SERPINE1 mature (Homo sapiens, UniProt P05121)` is recorded as 1 (HABP2 (Homo sapiens); co-IP; bronchoalveolar lavage fluid).
`CCND1/CDK6 fusion, linker (Homo sapiens)` gave a phosphorylation reduction of 20 fold (RB1 1-892 (Homo sapiens, UniProt P06400); in vitro kinase assay; reference: wild-type Rb, higher = greater reduction).
`FGF14 full length, CLuc fusion S226A (Homo sapiens)` has a peak luminescence of 10100 RLU (CD4/SCN8A/NLuc Nav1.6 C-terminal tail; split-luciferase complementation; HEK293; higher = more interaction).
With `SERPINC1 R45E/R46E/K114E/R129E (Homo sapiens)` the k2 was 82 M⁻¹ s⁻¹ (coagulation factor IXa; steady-state kinetics; room temperature, with: heparin).
`Por (Rattus norvegicus, UniProt P00388)`: “rate constant k2” 0.25 s⁻¹ (CYP2B4 (Oryctolagus cuniculus, UniProt P00178); first electron transfer, stopped-flow; nanodiscs; 25 °C, slow phase, anaerobic).
`ACTN1 fragment (Homo sapiens)` gave a β-galactosidase activity of 0.02 ± 0.02 Miller units (CASP8 (Homo sapiens, UniProt Q14790); two-hybrid; higher = stronger interaction).
`ACTC1 R312H` gave a Vmax of 18.2 µM/s (heavy meromyosin HMM (Oryctolagus cuniculus); myosin ATPase activity, steady-state kinetics; with: ATP 2 mM).
`CALM1 T26C, Alexa Fluor 568 at C26 (sequence not shown)`: “donor fluorescence lifetime” 2.3 ns (Camk2d T287A (Rattus norvegicus); FRET; representative cell; 500 nM).
`GIGYF2 fragment (Homo sapiens)`: “half-life of complex” 5 min (EIF4E2 52-234 (Homo sapiens, UniProt O60573); competitor displacement of 4E-BP1, pull-down).
For `B4 (Thy1)`, the koff was 0.036 ± 0.01 s⁻¹ (ITGAV/ITGB3 extracellular, Fc fusion 31-992 (Homo sapiens); optical tweezers force spectroscopy; Fc fusion).
For `WDR48 fragment (Homo sapiens) (sequence not shown)`, “molecule per partner” read 2 UAF1 per USP12 (USP12/ubiquitin, covalent Ub-PRG warhead (Homo sapiens); SEC-SAXS).
`ORAI1 (Homo sapiens, UniProt Q96D31)` gave a current density of 14.5 pA/pF (STIM1 339-475 (Homo sapiens, UniProt Q13586); store-independent I_CRAC, whole-cell patch clamp; HEK293).
With `CXCL12 mature (Homo sapiens, UniProt P48061)` the EC50 was 7.3 nM (CXCR4 (Homo sapiens, UniProt P61073); inhibition of forskolin-induced cAMP accumulation, agonist; with: forskolin).
For `KKAVK[pS]PAKAKAW (histone H1.1 residues 178-189 (Homo sapiens); pS183; pS = N[C@@H](COP(=O)(O)O)C(=O)O)`, “exchange rate constant” read 6.2 s⁻¹ (PIN1; EXSY NMR; peptide; 1 mM peptide, 25 °C).
For `B5 (CKS1)`, the KM was 3 fold (Cdc6 2-29 P5K, pT7 (UniProt P09119); steady-state kinetics; reference: wild-type peptide, higher = weaker substrate affinity).
With `HP (Homo sapiens, UniProt P00738)` the EC50 was 20 µg/mL (HMGB1 (Homo sapiens, UniProt P09429); TNF and IL-8 secretion, inhibitor; primary human macrophages; with: HMGB1 2 µg/mL).
For `UGT1A9 (Homo sapiens, UniProt O60656)`, the Vmax/Km was 48 µL/min/mg (CC(C)(c1ccc(O)cc1)c1ccc(O)cc1; steady-state kinetics; pH 7.4, 37 °C).
With `TNYLFSPNGPIARAW (TNYL-RAW)` the koff was 0.0013 s⁻¹ (EPHB4 16-539 (Homo sapiens, UniProt P54760); SPR; peptide).

Repeated from above:
For `KKAVK[pS]PAKAKAW (histone H1.1 residues 178-189 (Homo sapiens); pS183; pS = N[C@@H](COP(=O)(O)O)C(=O)O)`, “exchange rate constant” read 6.2 s⁻¹ (PIN1; EXSY NMR; peptide; 1 mM peptide, 25 °C).
